Published values from different studies.
A part holds a random share of what one study measured.

Block 1 — method: protein binding microarray; molecule type: double-stranded DNA, one strand shown; sample: in vitro; concentration: not given; reference: not given; direction: higher = stronger binding; measurement: E-score
Target: Histone acetyltransferase KAT6A, winged helix 1, GST fusion (KAT6A, Homo sapiens, UniProt Q92794, residues 1-85)
Notes: 8-mer, flanks averaged, mean of 2 arrays, mostly near background
Target sequence (chain): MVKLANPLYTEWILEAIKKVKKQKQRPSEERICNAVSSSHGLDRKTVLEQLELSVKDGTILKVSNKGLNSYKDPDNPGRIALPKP
CTACTCGC: 0.152
TTCAAAAA: -0.239
CGACAGAC: -0.0735
AGAACTGC: -0.095
AATCGCAA: 0.024
AAACTAGA: -0.145
ATAGCGAC: 0.129
AGTACTTC: 0.0453
CATGGTGG: -0.0928
CACCCGAC: 0.238
ACCTTTAA: -0.129
ACTGACAA: -0.159
AACTGAAC: -0.0852
ACCACAGG: -0.155
TGTCTAAA: -0.13
ACGCGGAT: 0.185
ACCATGTC: 0.0714

Block 2 — method: protein-binding microarray; molecule type: double-stranded DNA, one strand shown; sample: in vitro; concentration: 2540 nM top; notes: 60-bp whole probe; with: salmon DNA 0.4 mg/ml; reference: random background probes; direction: higher = stronger binding; measurement: fitted relative affinity; shared flanks, not repeated: GCCTAGCAC … GTCTTGATTCGCTTGACGCTGCTG
Target: Interferon regulatory factor 3, full length, phosphomimetic (IRF3, Homo sapiens, UniProt Q14653, residues 1-427, S386D/S396D/S398D/S402D/T404D/S405D)
Chain of UniProt Q14653 (whole entry, unmodified, looked up): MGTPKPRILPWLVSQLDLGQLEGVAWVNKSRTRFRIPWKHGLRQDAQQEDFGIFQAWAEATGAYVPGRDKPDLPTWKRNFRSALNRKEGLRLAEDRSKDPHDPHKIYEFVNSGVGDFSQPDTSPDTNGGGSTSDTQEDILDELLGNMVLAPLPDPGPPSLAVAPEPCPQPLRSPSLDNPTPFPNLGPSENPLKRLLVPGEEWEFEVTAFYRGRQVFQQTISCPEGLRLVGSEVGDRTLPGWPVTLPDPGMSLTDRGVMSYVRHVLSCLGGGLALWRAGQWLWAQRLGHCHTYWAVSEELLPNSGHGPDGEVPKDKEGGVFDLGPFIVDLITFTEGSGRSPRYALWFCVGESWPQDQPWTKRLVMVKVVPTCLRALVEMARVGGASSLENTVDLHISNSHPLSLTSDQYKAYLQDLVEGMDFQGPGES
TCCCAATTCTCTTTTCACTTGTGCTAG: 2.33 z-score
GGCTGTTTGGTTCTTATCCTGTGCTAG: 0.435 z-score
GTAGTTTTCATTATTGTTTCGTGCTAG: 3.58 z-score
TTAGGACTGGGTTTCGGTTCGTGCTAG: 4.25 z-score
AGTGGAGTTCATTGTCATTTGTGCTAG: -0.334 z-score
GACGGACTGGGGTCTCGGGACGTGCTA: -1.07 z-score
TTAGGTTTGGGACTGGGTTAGTGCTAG: -0.597 z-score
TTAGAACTGAGATTGGATTAGTGCTAG: -0.317 z-score
CTTTCTTTATGTACTCTCTCCGTGCTA: 5.16 z-score
TCAGGTTTCCAAATTGTACTGTGCTAG: 6.65 z-score
TTAGGTATCGGGACTGGGTTAGTGCTA: 1.16 z-score
TTCTATGACTACATTGCAGCGTGCTAG: 0.0684 z-score
GACGAGTTCGGGACTGGAGACGTGCTA: -0.406 z-score

Block 3 — method: universal PBM; molecule type: double-stranded DNA, one strand shown; sample: in vitro; concentration: 600 nM; direction: higher = stronger binding; measurement: E-score
Target: Sal-like protein 4, full length isoform A (SALL4, Homo sapiens, UniProt Q9UJQ4, residues 1-1053)
Chain of UniProt Q9UJQ4 (whole entry, looked up): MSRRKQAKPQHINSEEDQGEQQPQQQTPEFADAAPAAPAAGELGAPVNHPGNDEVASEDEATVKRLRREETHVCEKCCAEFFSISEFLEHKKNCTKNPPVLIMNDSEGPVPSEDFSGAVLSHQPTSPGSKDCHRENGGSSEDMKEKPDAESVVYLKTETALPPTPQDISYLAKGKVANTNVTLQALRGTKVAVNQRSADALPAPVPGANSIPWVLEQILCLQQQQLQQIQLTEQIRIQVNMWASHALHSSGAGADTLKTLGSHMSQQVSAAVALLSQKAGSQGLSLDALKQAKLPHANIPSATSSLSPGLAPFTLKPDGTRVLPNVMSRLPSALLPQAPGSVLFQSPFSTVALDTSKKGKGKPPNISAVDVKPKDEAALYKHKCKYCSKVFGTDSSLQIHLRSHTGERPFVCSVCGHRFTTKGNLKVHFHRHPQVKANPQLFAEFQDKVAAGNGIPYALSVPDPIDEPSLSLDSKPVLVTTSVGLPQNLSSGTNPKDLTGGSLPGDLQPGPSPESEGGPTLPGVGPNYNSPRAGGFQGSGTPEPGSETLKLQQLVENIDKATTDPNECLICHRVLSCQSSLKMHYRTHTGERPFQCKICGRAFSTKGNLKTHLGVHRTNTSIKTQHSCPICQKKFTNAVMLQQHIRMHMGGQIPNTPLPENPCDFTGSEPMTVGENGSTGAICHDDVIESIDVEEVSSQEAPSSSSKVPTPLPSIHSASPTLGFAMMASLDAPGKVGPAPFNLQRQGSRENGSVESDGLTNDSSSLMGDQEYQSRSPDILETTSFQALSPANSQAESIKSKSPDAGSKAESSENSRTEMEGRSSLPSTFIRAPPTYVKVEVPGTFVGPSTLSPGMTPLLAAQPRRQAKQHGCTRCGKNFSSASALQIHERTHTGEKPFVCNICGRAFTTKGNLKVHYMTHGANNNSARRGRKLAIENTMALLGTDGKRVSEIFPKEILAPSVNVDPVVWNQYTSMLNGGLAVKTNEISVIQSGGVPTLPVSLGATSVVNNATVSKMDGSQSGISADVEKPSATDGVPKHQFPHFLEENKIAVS
Notes: 8-mer, flanks averaged, mean of replicates
ACAAGGAC: -0.126
ATACGACC: -0.0751
GTTTTCTA: 0.178
ATAAGACG: 0.215
AGTCCAGA: -0.0202
TACCTTCA: 0.122
CTCTCGCC: -0.331
ATCGCAGC: -0.0834
ACTTGATC: 0.133
ACAGACCG: -0.14
CACCCAAG: -0.172
CAGCCGCC: -0.418
AGGTGATG: -0.161
AAGGATAG: 0.154
AAAACATG: 0.177
GGCGACAA: -0.183
ATAACTAA: 0.359
GGTCAATA: 0.175

Block 4 — method: RNA Bind-n-Seq; molecule type: RNA; sample: in vitro; concentration: 200 nM; notes: whole 134-nt RNA, ends assumed; with: 150 mM KCl; reference: input library; direction: higher = stronger binding; measurement: log2 enrichment
Target: Fragile X messenger ribonucleoprotein 1, C-terminal low-complexity region (Fmr1, Mus musculus, UniProt P35922)
Shared flanks, not repeated: GGGAGUUCUACAGUCCGACGAUC … UGGAAUUCUCGGGUGUCAAGG
ACCAUGCAGGUGGGCAUCUUUGGGAAGUGGGGCAAGGGGGGGAUAGGGAGGGGGGUAACACUUUGGGAACAGGUGGUCCCAGGUAAAUUC: 0.692
ACCAUGCAGGUGGGGAUCUUUGGGAAGUGGGGCAAGGGGGGGAUAGGGAGGGGGGUAACACUUUGGGAACAGGUGGUCCCAGGUCGUUUC: 0.491
UCCUCAAGUCCUGUGCUACACAUCGUAUGUACCGAAUCGGUGGAGGUUUGGAAAGUAUUAUGUUACGCCGUUCGGAUCUGCACUUCCAGC: -0.608
GUCCUGUGCUACACAUCGUAUGUACCGAAUCGGGGUUUGGGGUGGGGUUUUUUUGGGGAAAGUAUUAUGUUACGCCGUUCGGAUCUGCAC: 0.74
GCAGGAAGUAAAAACAAAUGGAAAUGCUUCGGAUAGUGGCAGGGGUGGGGGUUGCUAAGGCAAGGGUGGGAUGGGAGUGGGUAAAGAGUU: 0.49
CAAGUCCUGUGCUACACAUCGUAUGUACCGAAUCGGGAAAGGGGAAAGGGGAAAGGAAAGUAUUAUGUUACGCCGUUCGGAUCUGCACUU: -0.0043
GCAGGAAGUAAAAACAAAUGGAAAUGCUUCGGAUAGUGGCAGGGGUGGGGGUUGCUAAGGAAAGGGUGGGAAAGGAGUGGGUAAAGAGUU: 0.136
UCCUGUGCUACACAUCGUAUGUACCGAAUCGGCCCCCCGGGCCCCCCGGGCCCCCCGGGAAAGUAUUAUGUUACGCCGUUCGGAUCUGCA: -0.737
GGCUGCUGGAGUGCCGUGAGCAGGCCGCGGGAACGUCGCCGUCACCUUGUCUCGGGGCCUCGGCGCUGCUUCCCGCCAAAACACGUUUAC: -1.1

Block 5 — method: aptamer microarray, sandwich; molecule type: DNA with 2'F-ANA; sample: in vitro; concentration: 200 nM; with: Cy3 exosite-II aptamer, 400 nM; direction: higher = stronger binding; measurement: mean fluorescence intensity; sequence: GGTTGGTGTGGTTGG
Target: Prothrombin, mature alpha-thrombin (F2, Homo sapiens, UniProt P00734)
Notes: whole 15-mer aptamer, many near background
2'F-ANA at 2 3 4 6 7 8 12 13 15: 632 a.u.
2'F-ANA at 1 4 6 7 9 10 11 13 14 15: 46.5 a.u.
2'F-ANA at 4 6 7 8 9 10 11 13 14 15: 58.8 a.u.
2'F-ANA at 3 5 6 7 9 13 14: 60.6 a.u.
2'F-ANA at 1 2 4 6 12 14 15: 54.1 a.u.
2'F-ANA at 1 2 3 4 6 8 14 15: 64.7 a.u.
2'F-ANA at 2 7 13: 395 a.u.
2'F-ANA at 8 9 11 13: 490 a.u.
2'F-ANA at 1 3 4 5 9 11 15: 53.7 a.u.
2'F-ANA at 1 2 6 7 10 11 12 14: 43.5 a.u.
2'F-ANA at 1 5 8 11 12 15: 97 a.u.
2'F-ANA at 7 9 13 15: 428 a.u.
2'F-ANA at 1 4 9 11 14 15: 52.2 a.u.
2'F-ANA at 2 4 6 7 11 12 13 14: 93.8 a.u.

Block 6 — method: RNAcompete; molecule type: RNA; sample: in vitro; concentration: 20 nM; notes: 7-mer, probes averaged, single round; reference: mean of 7-mers; direction: higher = stronger binding; measurement: 7-mer Z-score
Target: PABPC1L2, full length, GST fusion (mouse, UniProt A0ABA7IW68)
Construct (chain): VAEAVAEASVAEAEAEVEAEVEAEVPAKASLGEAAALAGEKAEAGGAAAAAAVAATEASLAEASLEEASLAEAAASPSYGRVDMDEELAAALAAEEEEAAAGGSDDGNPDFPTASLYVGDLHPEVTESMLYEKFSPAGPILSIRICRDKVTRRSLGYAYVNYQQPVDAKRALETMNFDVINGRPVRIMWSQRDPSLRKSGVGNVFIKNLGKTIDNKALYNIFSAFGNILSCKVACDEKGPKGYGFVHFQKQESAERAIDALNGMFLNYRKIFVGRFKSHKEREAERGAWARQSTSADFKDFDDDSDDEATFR
CCUACGG: -0.179
CUCCUAU: -0.271
CGGUAAU: -0.108
AGGGAUG: 0.26
AAACUAU: 1.06
ACCUAGC: -0.204
CUUAUCG: -0.282
CGAUAGC: -0.213
CAACCCA: -0.15
